Published values from different studies.
Parts stem from different laboratories: compare values within a part only.

Block 1 — technique: RNA Bind-n-Seq; form: RNA; sample: in vitro; concentration: 200 nM; notes: whole 134-nt RNA, ends assumed; added: 150 mM KCl; baseline: input library; reading: higher = stronger binding
Target: Ras GTPase-activating protein-binding protein 1, full length (G3BP1, Homo sapiens, UniProt Q13283)
Sequence of UniProt Q13283 (whole entry, looked up): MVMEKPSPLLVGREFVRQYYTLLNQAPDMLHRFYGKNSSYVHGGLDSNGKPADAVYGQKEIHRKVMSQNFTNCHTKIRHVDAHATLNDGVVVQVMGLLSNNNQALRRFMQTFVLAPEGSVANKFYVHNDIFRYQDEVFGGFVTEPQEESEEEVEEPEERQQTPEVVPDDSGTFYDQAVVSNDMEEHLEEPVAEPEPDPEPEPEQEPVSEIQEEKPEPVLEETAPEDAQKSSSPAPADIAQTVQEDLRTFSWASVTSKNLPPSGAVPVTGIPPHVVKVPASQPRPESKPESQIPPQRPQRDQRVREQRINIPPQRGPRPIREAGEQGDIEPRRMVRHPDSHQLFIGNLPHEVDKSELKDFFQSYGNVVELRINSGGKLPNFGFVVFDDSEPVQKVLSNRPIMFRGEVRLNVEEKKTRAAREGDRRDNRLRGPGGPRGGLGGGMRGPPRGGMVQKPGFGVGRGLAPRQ
All sequences stand within: GGGAGUUCUACAGUCCGACGAUC … UGGAAUUCUCGGGUGUCAAGG
Strand | log2 enrichment
GUCCUGUGCUACACAUCGUAUGUACCGAAUCGGGAAAAAGGGGAAAAAGGAAAAAGGGAAAGUAUUAUGUUACGCCGUUCGGAUCUGCAC | -0.469
GUCCUGUGCUACACAUCGUAUGUACCGAAUCGGGUUUUUGGGUUUGGGUUUUUUUGGGAAAGUAUUAUGUUACGCCGUUCGGAUCUGCAC | -0.504
CCUGUGCUACACAUCGUAUGUACCGAAUCGGGGUUUUUGGGGUUUGGGGAAAAAAAGGGGAAAGUAUUAUGUUACGCCGUUCGGAUCUGC | -0.00686
UAACUUUAGAGGAGGAUCUGAUGGAUAUGGCAGUGGACGUGGAUUUGGGGAUGGCUAUUAUGGGUAUGGAGGAGGACCUGGAGGUGGCAA | 0.413
CUCAAGUCCUGUGCUACACAUCGUAUGUACCGAAUCGGUUUUUGGUUUGGAGGAAAGUAUUAUGUUACGCCGUUCGGAUCUGCACUUCCA | -0.668
ACCAUGCAGGUAGGCAUCUUUGGGAAGUGGGGCAAGGGGGGGAUAGGGAGGGGGGUAACACUUUGGGAACAGGUGGUCCCAGGUCGUUUC | 1.3
UGCGAUAUGAACGUUCACAAGCAAUGCGUCAUCAAUGUCCCCAGCCUCUGCGGAAUGGAUCACACUGAGAAGAGGGGGCGGAUUUACCUA | -1.21
ACCAUAAAGGUGGGCAUCUUUGGGAAGUGGGGCAAGGGGGGGAUAGGGAGGGGGGUAACACUUUGGGAACAGGUGGUCCCAGGUCGUUUC | 1.1
CACAGACAACACGCACCCACACAGAGACAGAGGGAAGGGGUUGGGAUGGGGACAGGGUGCACAGCAGGGCGGGGUAGGACCCCAGCCCCU | 1.92

Block 2 — technique: protein binding microarray; form: double-stranded DNA, one strand shown; sample: in vitro; concentration: not given; baseline: not given; reading: higher = stronger binding
Target: Histone acetyltransferase KAT6A, winged helix 2, GST fusion (KAT6A, Homo sapiens, UniProt Q92794, residues 85-181)
Notes: 8-mer, flanks averaged, mean of 2 arrays, mostly near background
Construct (chain): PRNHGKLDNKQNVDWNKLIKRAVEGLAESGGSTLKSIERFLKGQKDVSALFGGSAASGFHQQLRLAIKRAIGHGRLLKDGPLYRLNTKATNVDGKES
Strand | E-score
CCTTGGAG | 0.0512
ATTATGTC | -0.0693
TCAGTACA | -0.000565
CTGATTTC | 0.101
GGATCGCA | -0.151
AGATAAGC | -0.104
AGGCCCCT | -0.0779
CCCGCGTA | 0.0371
GACGGTCC | 0.102
ATGCCCAA | -0.00788
ACTAATGG | -0.14
CAAAGTTG | 0.0939
CTTATAAA | 0.0261
ATGCCTTA | -0.227
GCTTAGGA | -0.0595
ACTAGAGC | -0.042
ATAGAAAA | -0.0252
CAGCTCGC | 0.0272

Block 3 — technique: RNA Bind-n-Seq; form: RNA; sample: in vitro; concentration: 365 nM; baseline: no-protein control; reading: higher = stronger binding
Target: RNA binding protein fox-1 homolog 2, RRM domain, GST-SBP tag (RBFOX2, Homo sapiens, UniProt O43251-10, residues 100-194)
Notes: natural RNA segment, single round, ends assumed
All sequences stand within: GGGAGUUCUACAGUCCGACGAUC … UGGAAUUCUCGGGUGCCAA
Target sequence (chain): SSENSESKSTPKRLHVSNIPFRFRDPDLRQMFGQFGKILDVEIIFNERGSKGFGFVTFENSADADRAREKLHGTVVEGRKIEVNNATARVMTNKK
Strand | RBNS enrichment (R)
GCGAGUGAUUGUGAAAGCACCUCUGUUGUAGUGGGUAGGUGCCUUUCUCAUGAGCGGGGAGCAUAACUGUUAGUUAUUUGUGGUGAUUAUGGCAGAUUUCAAGAUCACGU | 0.981
GAGGUUGGUUUGGGGACCAACCAAGCUACCAACCUUAAGGGUAACUUGGUCUCGAUUUAGGAGCCUGGAAAUACUCCGUUAUACAAGUUUGUGCUUUCUUUCUUUCUUUC | 0.989
CUCUAAAGUACUUGAGUGGUGCUAAGCUGGGCCUUGCAGAGCUUAGCUUAUAGCAGACCUUGAGCCUCCUUGGUUACAGCAGGUUGUGGAUAAGUUACAUCGGGCUUCAU | 0.423
GCAGUCAACUCCAUGCUGUGCAUGUUUCCCACCCCGUGCCUUAGAAGCUGAAGGUGCUUUUUCAUCAGAACCUUAACAUGGCUGUUGAUGGUACCCUGGCUGCAGCCCAG | 2.15
UAUGAAAACAAAUCCACAUUCAUUAUUUCACAUUUGUCUAAGAGGUUAAGUAUCUGAAGGGAGGGUAGUGUAGAUAGCAAAUGACAGAGACAGUACACACCUAGUGUAUU | 0.404
UCAUCAGCAAACCAGGCCAGCAUUCCACAGUCCUCUGCCUAAAGCUAAGCUUGGCCCUCACCAGCCAGCUUCACUGGAGCACCCAGAACACUUAGCUGGCCACCGCUUUA | 0.395
UGACCCAUGUGCGGCAGGGACUCGGCAAAGCUGUGAGGAGCUGAGCUCCGGAGACAGGCACAGCUCUGGCAGAAAGCUCAACGCUAAGGGAUCUCCUUCCCAGUUUCAGC | 0.239
AGGAAAAGUUGAGGGGGACUUAGGAAUAAUUUCCUUAUAAAAAGGAGCCUUAUUCUGUACCCCACUUUCCUCUUUUUAAUGGUACACGGUGGUGAUAUUUUUCAUCCCCA | 0.254

Block 4 — technique: protein-binding microarray; form: double-stranded DNA, one strand shown; sample: in vitro; concentration: 250 nM; notes: 60-bp whole probe; added: salmon DNA 0.4 mg/ml; baseline: random background probes; reading: higher = stronger binding; all sequences stand within: GCCTAGCAC … GTCTTGATTCGCTTGACGCTGCTG
Target: Interferon regulatory factor 7, full length, phosphomimetic (IRF7, Homo sapiens, UniProt Q92985, residues 1-503, S101K/S471D/S472D/S475D/S476D/S477D/S483D/S484D/S487D)
Residues (chain): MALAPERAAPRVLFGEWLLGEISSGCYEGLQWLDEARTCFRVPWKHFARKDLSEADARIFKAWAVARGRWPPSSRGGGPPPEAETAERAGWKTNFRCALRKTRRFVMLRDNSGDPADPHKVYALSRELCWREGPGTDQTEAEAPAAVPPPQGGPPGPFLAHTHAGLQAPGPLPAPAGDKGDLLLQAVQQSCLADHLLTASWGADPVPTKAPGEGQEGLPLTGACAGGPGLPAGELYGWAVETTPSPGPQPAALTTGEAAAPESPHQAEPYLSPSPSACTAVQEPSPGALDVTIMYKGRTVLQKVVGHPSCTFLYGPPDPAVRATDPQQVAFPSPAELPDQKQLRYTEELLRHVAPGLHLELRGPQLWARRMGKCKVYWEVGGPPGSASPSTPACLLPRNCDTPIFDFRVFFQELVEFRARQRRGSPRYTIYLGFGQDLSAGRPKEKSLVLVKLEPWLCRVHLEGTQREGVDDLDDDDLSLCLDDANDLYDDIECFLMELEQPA
Strand | log fluorescence
TTAGCTTTCGGGTATCGATTAGTGCTA | 1.35 z-score
GACGGTATCGACACAGGGGACGTGCTA | -0.0662 z-score
TCATTTCTCATTCGTCATACTGTGCTA | 2.86 z-score
TTAGACTTCAGTTCCGATTAGTGCTAG | 0.89 z-score
GACGGTATCGACACTGGGGACGTGCTA | -0.454 z-score
GACGGTCTCCTACTCCTGACGTGCTAG | -0.212 z-score
TGGGATTTTTAGTTAGAAAAGTGCTAG | -0.441 z-score
GACGATCTCAGACTGTAGACGTGCTAG | -0.324 z-score
GACGGTTTCTGTCTCGGGACGTGCTAG | 2.12 z-score
GACGGGCTGGACACTGGGGACGTGCTA | -1.06 z-score
GACGATTTCAGTTTCGCGACGTGCTAG | 2.02 z-score
TCAGCTTTGACTCTTTCACTGTGCTAG | -0.44 z-score
GACGATATCAGTCTCGAGAAGTGCTAG | 0.276 z-score
GACGGACCGGGTCTCGGGACGTGCTAG | 0.454 z-score
TTAGGACAGGGTATCGGTTAGTGCTAG | 0.51 z-score
GTAGATTTCGGGTATCGATTAGTGCTA | 1.28 z-score
GACGATTTCAGTTTCGTGACGTGCTAG | 2.6 z-score
TTAGGTTTCGGTATAGGTTAGTGCTAG | 10.2 z-score
TTAGGTCTCGGACAGGGTTAGTGCTAG | 0.104 z-score
